Published values from different studies.
Compare with care: the assays were run in different laboratories. ± marks the error that the study gave. Values after ≈ are worked out from the molar mass of the structure shown.
Organism: Staphylococcus aureus

Structure (SMILES)	assay	system	conditions	scale	measurement	value
C=C(NC(=O)c1csc(-c2nc3c(cc2O)-c2nc(cs2)C(=O)NC(C(C)O)C(=O)NC(=C(C)OC)c2nc(cs2)C(=O)NC2c4nc(cs4)C(=O)NC(COC(=O)c4c5c6c(cccc6n4O)COC(=O)C(OC4CC(C)(O)C(N(C)C)C(C)O4)C2OC5)c2nc-3cs2)n1)C(N)=O (centres unmarked)	–	ATCC 43300 MRSA	1/2×MIC, 1 h exposure	–	post-antibiotic effect	0.36 ± 0.05 h
CC[C@H](C)[C@H](NC(=O)[C@H](CC1CCCCC1)NC(=O)[C@H](Cc1c[nH]c2ccccc12)NC(=O)[C@@H](N)CCCN)C(=O)N[C@H](Cc1ccccc1)C(=O)N[C@@H](Cc1cn(Cc2ccccc2)cn1)C(N)=O	bacterial growth	ATCC 29213	–	–	IC50	> 20 µg/mL
C=C(C)C(=O)NCCCCCCOCc1cn(CCCCCCNC(=O)C(=C)C)n[n+]1C	growth, turbidity OD600	–	24 h	–	IC50	> 100 µM
CC[C@H](C)[C@H](NC(=O)[C@H](CCCN)NC(=O)[C@H](CC(N)=O)NC(=O)[C@H](Cc1c[nH]c2ccccc12)NC(=O)[C@H](Cc1ccccc1)NC(=O)[C@H](CCCN)NC(=O)[C@H](CCCCNC(=N)N)NC(=O)[C@H](CC(C)C)NC(=O)[C@H](Cc1c[nH]c2ccccc12)NC(=O)[C@H](CCCN)NC(=O)[C@H](CCCCNC(=N)N)NC(=O)[C@H](CC(C)C)NC(=O)CNC(C)=O)C(=O)N[C@@H](CCCN)C(=O)N[C@@H](CCCCNC(=N)N)C(N)=O	–	–	concentration not given, with: FeCl3 4 µM	baseline: without salt	MIC fold change	2 fold
COc1cc2c(cc1OC)C1Cc3ccc(OC)c(OC)c3C[NH+]1CC2.[Cl][Fe-]([Cl])([Cl])[Cl] (centres unmarked)	–	–	24 h, 37 °C	–	MIC50	1180 µM
N=C(N)NCCC[C@@H]1NC(=O)[C@H](CCCNC(=N)N)NC(=O)[C@@H](C(c2ccccc2)c2ccccc2)NC(=O)[C@H](Cc2c[nH]c3ccccc23)NC(=O)[C@@H](C(c2ccccc2)c2ccccc2)NC(=O)[C@@H](CCCNC(=N)N)NC(=O)[C@@H](CCCNC(=N)N)NC1=O	–	MRSA ATCC BAA-1556	MIC	–	time to complete killing	3 to 4 h
CC[C@H](C)[C@H](NC(=O)[C@H](CC1CCCCC1)NC(=O)[C@H](Cc1ccccc1)NC(=O)[C@@H](N)CCCN)C(=O)N[C@H](Cc1ccccc1)C(=O)N[C@@H](Cc1cn(Cc2ccccc2)cn1)C(N)=O	–	ATCC 33591, methicillin-resistant	–	–	IC50	> 20 µg/mL
C=CS(=O)(=O)NCCCCCCOCc1cn(CCCCCCNS(=O)(=O)C=C)nn1	growth, turbidity OD600	–	24 h	–	IC50	> 100 µM
CC(C)c1ccc2c(c1)CCC1C(C)(CN(CC(O)C[N+](C)(C)C)CC(O)C[N+](C)(C)C)CCCC21C (centres unmarked)	microbial growth, disc diffusion	ATCC29213	31.2 µg/disc, 24 h	–	inhibition zone	11 mm
CCCCCCCCCCCC(=O)Oc1c(C)c(OC)c2c(c1C)OC(=O)[C@@H](CCCCCCCCCC)[C@]2(O)/C=C/c1ccccc1 (relative stereo)	microbial killing, broth dilution	ATCC25923	–	–	MBC	> 5000 µg/mL
O=C1C=CC(=O)N1CCCCCCCCOCc1cn(CCCCCCCCN2C(=O)C=CC2=O)nn1	growth, turbidity OD600	–	24 h	–	IC50	> 100 µM
O=c1cccccc1O	microbial growth, broth dilution	ATCC29213	–	–	MIC80	11.7 µM (≈ 1.43 µg/mL)
CC(CCCOC(=O)CCC[N+](C)(C)C)C1CCC2C3CCC4CC(OC(=O)CCC[N+](C)(C)C)CCC4(C)C3CC(OC(=O)CCC[N+](C)(C)C)C12C (centres unmarked)	microbial growth, disc diffusion	ATCC29213	62.5 µg/disc, 24 h	–	inhibition zone	21 mm
Oc1cccc2c1[nH]c1c(C3=CC4(O)CCC=CCCCCN5CCC3C3(CC6C=CCCCCN6C43)C5)nccc12 (single isomer, unassigned; (+))	growth	ATCC 43300, MRSA	–	–	IC50	0.82 ± 0.04 µg/mL
CC[C@H]1OC(=O)[C@H](C)[C@@H](OC(=O)Cc2cccc([N+](=O)[O-])c2)[C@H](C)[C@@H](O[C@@H]2O[C@H](C)C[C@H](N(C)C)[C@H]2O)[C@](C)(OC)C[C@@H](C)C(=O)[C@H](C)[C@@H](O)[C@]1(C)O	microbial growth	BAA976	–	–	MIC	0.5 µg/mL (≈ 0.000664 mM)
COc1c(C)c(OC(=O)c2ccccc2)c(C)c(OC(=O)c2ccccc2)c1C(=O)/C=C/c1ccccc1	microbial growth, well diffusion	ATCC25923	5 µg/mL	–	inhibition zone	9 mm
CC(CCCOC(=O)CCC[N+](C)(C)C)C1CCC2C3CCC4CC(OC(=O)CCC[N+](C)(C)C)CCC4(C)C3CCC12C (centres unmarked)	microbial growth, disc diffusion	ATCC29213	250 µg/disc, 24 h	–	inhibition zone	17 mm
CCCC(=O)Oc1c(C)c(OC)c2c(/C=C/c3ccccc3)c(CC)c(=O)oc2c1C	microbial killing, broth dilution	ATCC25923	–	–	MBC	> 5000 µg/mL
CCCCCCCCCC(=O)N[C@@H](Cc1c[nH]c2ccccc12)C(=O)N[C@H](CC(N)=O)C(=O)N[C@@H](CC(=O)O)C(=O)N[C@@H]1C(=O)NCC(=O)N[C@@H](CCCNC(=O)OC2/C=C/CCCCC2)C(=O)N[C@@H](CC(=O)O)C(=O)N[C@H](C)C(=O)N[C@@H](CC(=O)O)C(=O)NCC(=O)N[C@H](CO)C(=O)N[C@@H]([C@H](C)CC(=O)O)C(=O)N[C@@H](CC(=O)c2ccccc2N)C(=O)O[C@@H]1C (some centres unmarked)	planktonic bacterial growth, isothermal microcalorimetry	MSSA	2.0 µg/mL, 24 h, 37 °C, with: TAG hydrogel	–	peak heat flow time	0 h
C=CS(=O)(=O)NCCCCOCc1cn(CCCCNS(=O)(=O)C=C)nn1	growth, turbidity OD600	–	24 h	–	IC50	> 100 µM
CC[C@H](C)[C@H](NC(=O)[C@H](CC1CCCCC1)NC(=O)[C@H](CC1CCCCC1)NC(=O)[C@@H](N)CCCN)C(=O)N[C@H](Cc1ccccc1)C(=O)N[C@@H](Cc1cn(Cc2ccccc2)cn1)C(N)=O	–	ATCC 33591, methicillin-resistant	–	–	IC50	> 20 µg/mL
C=C(C)C(=O)NCCCCCCCCOCc1cn(CCCCCCCCNC(=O)C(=C)C)n[n+]1C	growth, turbidity OD600	–	24 h	–	IC50	> 100 µM
Cc1cccc(C(=O)Oc2cccccc2=O)c1	microbial growth, broth dilution	ATCC29213	–	–	MIC80	15.4 µM (≈ 3.7 µg/mL)
CC(CCCOC(=O)CCC[N+](C)(C)C)C1CCC2C3C(OC(=O)CCC[N+](C)(C)C)CC4CC(OC(=O)CCC[N+](C)(C)C)CCC4(C)C3CC(OC(=O)CCC[N+](C)(C)C)C12C (centres unmarked)	microbial growth, disc diffusion	ATCC29213	15.6 µg/disc, 24 h	–	inhibition zone	7 mm
CC[C@H](C)[C@H](NC(=O)[C@H](CC1CCCCC1)NC(=O)[C@H]1CCCN1C(=O)[C@@H](N)CCCN)C(=O)N[C@H](Cc1ccccc1)C(=O)N[C@@H](Cc1cn(Cc2ccccc2)cn1)C(N)=O	bacterial growth	ATCC 29213	–	–	IC50	> 20 µg/mL
C=C1CN(C(=N)N)CC2Nc3c(F)cc(Br)cc3C12CCNS(=O)(=O)c1ccc(Cl)cc1.O=C(O)C(F)(F)F (centres unmarked)	–	MRSA ATCC BAA-44	with: amoxicillin/clavulanic acid	–	minimum resensitizing concentration	2 µg/mL
